Measured values of several laboratories.
A part holds a random share of what one study measured. Changes are numbered by the printed parent chain.

Series 1
Target: UBE2D1 UBC core domain (UniProt P51668)
Sequence of UniProt P51668 (whole entry, looked up): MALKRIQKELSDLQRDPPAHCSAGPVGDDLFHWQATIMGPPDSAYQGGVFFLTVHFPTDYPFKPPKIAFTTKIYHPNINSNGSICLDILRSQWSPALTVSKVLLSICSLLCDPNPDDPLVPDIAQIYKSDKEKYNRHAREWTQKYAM
Method: yeast two-hybrid
Matrix: yeast
Notes: mostly zero background
Baseline: not given
Direction: higher = stronger interaction
B1: ANAPC11 RING domain (UniProt Q9NYG5); chain GICRMAFNGCCPDCKVPGDDCPLVWGQCSHCFHMHCILKWLHAQQVQQHCPMCRQEWKFKE
B2: RNF187 RING domain (UniProt Q5TA31); chain ALPAGPAEAACALCQRAPREPVRADCGHRFCRACVVRFWAEEDGPFPCPECADDCWQRAVEP
B3: TRIM60 RING domain (UniProt Q495X7); chain ALVNLQEESSCPICLEYLKDPVTINCGHNFCRSCLSVSWKDLDDTFPCPVCRFCFPYKSFRR
B4: RNF166 RING domain (UniProt Q96A37); chain GDSGLEAQYTCPICLEVYHRPVAIGSCGHTFCGECLQPCLQVPSPLCPLCRLPFDPKKVDK
B5: RNF2 RING domain (UniProt Q99496); chain SPRSLHSELMCPICLDMLKNTMTTKECLHRFCADCIITALRSGNKECPTCRKKLVSKRSLR
B6: RNF183 RING domain (UniProt Q96D59); chain EQQGRELEAECPVCWNPFNNTFHTPKMLDCCHSFCVECLAHLSLVTPARRRLLCPLCRQPTVLASGQP
B7: MKRN2 RING domain (UniProt Q9H000); chain FAFQASQDKVCSICMEVILEKASASERRFGILSNCNHTYCLSCIRQWRCAKQFENPIIKSCPECRVISEFVIPSV
B8: RNF152 RING domain (UniProt Q8N8N0); chain ETLSQDSLLECQICFNYYSPRRRPKLLDCKHTCCSVCLQQMRTSQKDVRCPWCRGVTKLPPGFS
B9: RNF31 RING domain (UniProt Q96EP0); chain AFLRRLLAQECAVCGWALPHNRMQALTSCECTICPDCFRQHFTIALKEKHITDMVCPACGRPDLTDDTQLL
Sequence | lacZ reporter activity
PEELAVNNDDCAICWDSMQAARKLPCGHLFHNSCLRSWLEQDTSCPTCRMSLNIADNNR (AMFR RING domain (UniProt Q9UKV5)) | 5170
B1 (ANAPC11 RING domain) | 0
AEADPLGRFTCPVCLEVYEKPVQVPCGHVFCSACLQECLKPKKPVCGVCRSALAPGVRAV (RNF114 RING domain (UniProt Q9Y508)) | 0
LDAASGHPLVCPLCHGQYERPCLLDCFHDFCTGCLRGRATDGRLSCPLCQHQTLVKGPSG (Rnf207 RING domain (UniProt Q3V3A7)) | 0
YPEEVDDDLICHICLQALLDPLDTPCGHTYCTLCLTNFLVEKDFCPMDRKPLVLQHCKK (LNX1 RING domain (UniProt Q8TBB1)) | 0
B2 (RNF187 RING domain) | 0
KPDKMEETLTCIICQDLLHDCVSLQPCMHTFCAACYSGWMERSSLCPTCRCPVERICKNH (CHFR RING domain (UniProt Q96EP1)) | 9840
YCEMGSTFQLCKICAENDKDVKIEPCGHLMCTSCLTAWQESDGQGCPFCRCEIKGTEPII (CBLB RING domain (UniProt Q13191)) | 0
QVQSRTKIEECVVCSDKKAAVLFQPCGHMCACENCANLMKKCVQCRAVVERRVPFI (MIB1 RING domain (UniProt Q86YT6)) | 0
B3 (TRIM60 RING domain) | 0
B4 (RNF166 RING domain) | 0
B5 (RNF2 RING domain) | 0
B6 (RNF183 RING domain) | 0
B7 (MKRN2 RING domain) | 0
B8 (RNF152 RING domain) | 0
B9 (RNF31 RING domain) | 0

Series 2
Target: Histone acetyltransferase KAT6A, winged helix 2, GST fusion (KAT6A, Homo sapiens, UniProt Q92794, residues 85-181)
Method: protein binding microarray
Form: double-stranded DNA, one strand shown
Matrix: in vitro
Tested at: not given
Notes: 8-mer, flanks averaged, mean of 2 arrays, mostly near background
Baseline: not given
Direction: higher = stronger binding
Construct (chain): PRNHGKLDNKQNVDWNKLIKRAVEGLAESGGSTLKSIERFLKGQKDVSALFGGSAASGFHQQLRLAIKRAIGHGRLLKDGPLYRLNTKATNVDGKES
Sequence | E-score
AAAATCAG | 0.062
CAGGTCAA | -0.0391
TAGTAAAA | 0.1
AATATCGG | 0.0125
GTCAGGAC | 0.0176
TAGTCTAA | -0.199
GTGTTGGA | -0.0159
CCTGAAAA | -0.0566
TACACAGA | -0.0528
CGGGTACG | 0.0988
GTGTTAGA | -0.121
AAACTCGA | -0.0708
GACTTCGC | 0.0668
GAGTCAAC | -0.136
GAAAGGAA | -0.00291
CTTAATAA | 0.0943
GCAGAAAC | 0.185
GTAAAGAA | 0.0195
GGTCGGAC | -0.057
GGGCTTTA | -0.19
CCTGCCGA | 0.11
TTATTGAA | -0.09

Series 3
Target: ABI1, truncated, D143A, DHFR fusion (Arabidopsis thaliana)
Method: DHFR PCA, deep sequencing
Matrix: yeast
Notes: methotrexate growth selection, single substitutions
Added: (+)-ABA 58 µM
Baseline: wild-type fitted maximum
Direction: higher = stronger binding
Parent: PYL1, truncated, DHFR fusion (Arabidopsis thaliana); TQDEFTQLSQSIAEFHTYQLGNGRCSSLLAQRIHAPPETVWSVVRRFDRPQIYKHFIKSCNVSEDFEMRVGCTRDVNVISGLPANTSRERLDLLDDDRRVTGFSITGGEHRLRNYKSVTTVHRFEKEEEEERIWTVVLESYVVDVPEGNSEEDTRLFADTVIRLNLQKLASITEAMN
Substitution | relative binding score [%]
Q10L | 72.1
E127S | 98.8
L94W | 86.9
D48T | 22
Q10W | 67.1
G102L | -9.32
L166A | 4.85
V62L | 82.6
V40R | -7.8
D153N | 37.8
N77F | 89.8
T120K | -1.4
M176Y | 78.2
M68Q | 76.5
C72I | 75.2
S104G | 5.31
I162A | 18.8
I52T | 89
D48E | 71.9
H16P | 14.9
Y115K | 1.37
D96R | 6.81
G108K | 7.06
E127Q | 95
K126W | 73.6

Series 4
Target: CCNA2, cyclin fold, Cln2 fusion (human)
Method: yeast growth competition, sequencing
Matrix: yeast
Notes: strong parent motif
Baseline: not given
Direction: higher = stronger binding
Parent: RBL1 docking peptide (human); GSAKRRLFGEDPP; partner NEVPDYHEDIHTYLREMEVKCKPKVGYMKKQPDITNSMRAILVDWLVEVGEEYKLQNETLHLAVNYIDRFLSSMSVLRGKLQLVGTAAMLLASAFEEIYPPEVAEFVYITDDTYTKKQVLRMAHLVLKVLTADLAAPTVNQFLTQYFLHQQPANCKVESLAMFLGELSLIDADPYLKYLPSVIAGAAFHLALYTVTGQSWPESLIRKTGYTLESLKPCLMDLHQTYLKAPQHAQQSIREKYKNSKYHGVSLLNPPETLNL
Substitution | normalised enrichment score
R6W | 0.0791
P13D | 6.12
P12Y | 5.96
R5K | 5
D11N | 5.77
G9S | 6.59
L7Y | 0.221
D11Q | 5.71
P13Y | 5.1
P13W | 6.52
G1W | 5.96
D11Y | 6.53
D11S | 5.42
E10Q | 5.15
R5H | 0.395
A3D | -0.398
A3C | 6.44
P13T | 5.5
G1Y | 6.79
P12R | 5.81
E10D | 5.96
P12I | 5.48

Series 5
Target: Interferon regulatory factor 5, full length, phosphomimetic (IRF5, Homo sapiens, UniProt Q13568-2, residues 1-514, K96S/S451D/S453D/S456D/S462D)
Method: protein-binding microarray
Form: double-stranded DNA, one strand shown
Matrix: in vitro
Tested at: 250 nM
Notes: 60-bp whole probe
Added: salmon DNA 0.4 mg/ml
Baseline: random background probes
Direction: higher = stronger binding
Shared flanks, not repeated: GCCTAGCAC … GTCTTGATTCGCTTGACGCTGCTG
Sequence | log fluorescence
GACGATATTAGTTTCGAGACGTGCTAG | 7.01 z-score
GACGGTTTCGGACTGGGGATGTGCTAG | 3.86 z-score
TTAGATTGCGGGTTTCGATTAGTGCTA | 6.6 z-score
GACGAACTCAGTATCGAGACGTGCTAG | 1.83 z-score
GACGGTAGCGGTATCGGGACGTGCTAG | 0.692 z-score
TGGAATTTCCCTCTCCCCTCGTGCTAG | 0.492 z-score
TCATTAATGCTTCTGGGACTGTGCTAG | 0.12 z-score
GACTATTTCGGGACTGGAGACGTGCTA | 1.93 z-score
GACGGTTTCGGTTCCGGCACGTGCTAG | 9.38 z-score
GGCGGTATCGGTATCGGGACGTGCTAG | 6.45 z-score
TACTCTACAGGGTTTCACTTTGTGCTA | 1.32 z-score
GTCGGTTTCGACTATCGGGACGTGCTA | 7.98 z-score
TCATAAACTAGAAACTGAACTGTGCTA | 0.692 z-score
GACGGTATCGACTTTCGGGAAGTGCTA | 6.84 z-score
TTAGGTATCGGTATCGGTAAGTGCTAG | 9.34 z-score
TTAGGTATCGGGTTTCGGTAAGTGCTA | 7.49 z-score
TCACCTACAGGTTCTCTGACTGTGCTA | -0.118 z-score
TTATGTCTCGGTCTCGGTTAGTGCTAG | 1.52 z-score
TCAAAATTATCTTTAATACTGTGCTAG | 0.516 z-score
TCACCTTGCTTTATGTGACTGTGCTAG | 0.195 z-score
GACGGTTTCCTTCTCCTCACGTGCTAG | 0.849 z-score
GACGATCTCAGACTGCAGACGTGCTAG | -0.233 z-score
GACGATCTCAGACTGAAGACGTGCTAG | -0.148 z-score
ATCTCACTCTGTCCCTCTGTGTGCTAG | 0.284 z-score
